Experimental data collected from several papers.
Compare with care: the assays were run in different laboratories. Numbers after ± are the reported error.
OPRK1: Kappa-type opioid receptor (OPRK1, Homo sapiens, UniProt P41145)
OPRL1: Nociceptin receptor (OPRL1, Homo sapiens, UniProt P41146)

Chains of the proteins cited; added tags and fusions are not shown.
UniProt P41145, whole entry: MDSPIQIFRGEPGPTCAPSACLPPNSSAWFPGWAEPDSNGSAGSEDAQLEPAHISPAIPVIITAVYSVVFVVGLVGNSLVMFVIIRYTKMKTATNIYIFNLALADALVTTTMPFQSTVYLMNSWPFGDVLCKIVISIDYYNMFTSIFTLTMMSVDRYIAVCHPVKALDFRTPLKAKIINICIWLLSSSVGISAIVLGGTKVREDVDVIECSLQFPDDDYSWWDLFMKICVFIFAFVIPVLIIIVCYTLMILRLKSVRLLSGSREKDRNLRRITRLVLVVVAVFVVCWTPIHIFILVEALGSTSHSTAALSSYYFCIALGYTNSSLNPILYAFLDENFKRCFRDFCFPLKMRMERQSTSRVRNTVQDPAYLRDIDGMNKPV
UniProt P41146, whole entry: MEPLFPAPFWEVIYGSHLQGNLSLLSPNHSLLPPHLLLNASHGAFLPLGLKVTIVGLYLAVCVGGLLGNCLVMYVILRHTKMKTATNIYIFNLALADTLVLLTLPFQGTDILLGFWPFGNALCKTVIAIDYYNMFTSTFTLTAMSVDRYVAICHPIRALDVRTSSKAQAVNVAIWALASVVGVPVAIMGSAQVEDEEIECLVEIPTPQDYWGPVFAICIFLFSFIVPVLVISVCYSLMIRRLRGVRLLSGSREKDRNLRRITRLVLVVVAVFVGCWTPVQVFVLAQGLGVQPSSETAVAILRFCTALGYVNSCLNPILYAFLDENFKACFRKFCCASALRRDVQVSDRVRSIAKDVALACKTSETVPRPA
UniProt P33535, whole entry: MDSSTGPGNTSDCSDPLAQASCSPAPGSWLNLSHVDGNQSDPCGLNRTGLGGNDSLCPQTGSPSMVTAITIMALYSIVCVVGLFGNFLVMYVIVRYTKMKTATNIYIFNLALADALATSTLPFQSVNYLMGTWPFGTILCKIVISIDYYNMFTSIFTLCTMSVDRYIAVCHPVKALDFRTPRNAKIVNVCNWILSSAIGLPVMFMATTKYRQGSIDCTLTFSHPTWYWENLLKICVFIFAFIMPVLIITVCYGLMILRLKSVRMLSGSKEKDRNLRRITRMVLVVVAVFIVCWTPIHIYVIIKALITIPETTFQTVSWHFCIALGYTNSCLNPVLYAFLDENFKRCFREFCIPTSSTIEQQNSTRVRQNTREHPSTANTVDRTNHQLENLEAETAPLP
UniProt P21462, whole entry R190W: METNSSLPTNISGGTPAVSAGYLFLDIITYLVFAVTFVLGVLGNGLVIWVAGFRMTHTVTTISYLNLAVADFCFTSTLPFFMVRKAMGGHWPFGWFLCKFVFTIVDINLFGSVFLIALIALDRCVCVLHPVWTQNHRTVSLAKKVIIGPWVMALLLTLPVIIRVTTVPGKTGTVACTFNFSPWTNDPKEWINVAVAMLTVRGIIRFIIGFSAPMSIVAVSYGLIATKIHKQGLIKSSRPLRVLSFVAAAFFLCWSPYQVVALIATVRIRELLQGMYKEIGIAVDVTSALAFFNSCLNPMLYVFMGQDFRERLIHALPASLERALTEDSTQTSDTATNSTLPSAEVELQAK

The Ki of `CCC1C(=O)N(C2CCN(C/C=C/c3ccccc3)CC2)c2ccccc21` (stereo not shown) is reported as 1370 ± 185 nM (OPRK1; radioligand displacement; added: tritiated U-69593).
With `O=CN1CC[C@]23c4c5ccc(O)c4O[C@H]2[C@@H](O)C=C[C@H]3[C@H]1C5` the Ki was 420 ± 30 nM (Mu-type opioid receptor (Oprm1, Rattus norvegicus, UniProt P33535); rat brain membranes; added: [3H]DAMGO).
For `CC[C@H](C)[C@H](N)C(=O)N[C@@H](CC(=O)O)C(=O)N[C@@H](CCCNC(=N)N)C(=O)N[C@@H](CC(C)C)C(=O)N[C@@H](CC(N)=O)C(=O)N[C@@H](CCC(=O)O)C(=O)N[C@H](C(=O)N[C@@H](C)C(=O)N[C@@H](CCCCN)C(=O)N[C@@H](CC(N)=O)C(=O)N[C@@H](CC(C)C)C(=O)N[C@@H](CC(N)=O)C(=O)N[C@@H](CCC(=O)O)C(=O)N[C@@H](CO)C(=O)N[C@@H](CC(C)C)C(=O)N[C@H](C(=O)N[C@@H](CC(=O)O)C(=O)N[C@@H](CC(C)C)C(=O)N[C@@H](CCC(N)=O)C(=O)N[C@@H](CCC(=O)O)C(=O)N[C@@H](CC(C)C)C(=O)NCC(=O)N[C@@H](CCCCN)C(=O)N[C@@H](Cc1ccc(O)cc1)C(=O)N[C@@H](CCC(=O)O)C(=O)N[C@@H](CCC(N)=O)C(=O)N[C@@H](Cc1ccc(O)cc1)C(=O)N[C@H](C(=O)N[C@@H](CCCCN)C(=O)N[C@@H](Cc1c[nH]c2ccccc12)C(=O)N1CCC[C@H]1C(=O)N[C@@H](Cc1c[nH]c2ccccc12)C(=O)N[C@@H](Cc1ccc(O)cc1)C(=O)N[C@H](C(=O)N[C@@H](Cc1c[nH]c2ccccc12)C(=O)N[C@@H](CC(C)C)C(=O)O)C(C)C)[C@@H](C)CC)[C@@H](C)CC)C(C)C`, the Ki was 770 ± 25 nM (fMet-Leu-Phe receptor (FPR1, Homo sapiens, UniProt P21462, R190W); binding, competition binding; 4 °C, added: formyl-Nle-Leu-Phe-Nle-Tyr-Lys-FITC 0.3 nM).
`CO[C@]12CC[C@@]3(C[C@@H]1[C@](C)(O)c1cccs1)[C@H]1Cc4ccc(O)c5c4[C@@]3(CCN1CC1CC1)[C@H]2O5` has a Ki of 75 ± 4.2 nM (OPRL1; binding, radioligand displacement; HEK membranes; added: [3H]N/OFQ).
`N=C(N)NCCC[C@H](N)C(=O)NCC1(Nc2ccccc2)CCN(Cc2ccccc2)CC1` gave a Ki of 1230 ± 30 nM (OPRK1; binding; HEK293 membranes; added: [3H]U-69,593).
The Ki of `CCC1C(=O)N(C2CCN(CCCCc3ccc(-c4ccccc4)cc3)CC2)c2ccccc21` (stereo not shown) is reported as over 10000 nM (OPRK1; radioligand displacement; added: tritiated U-69593).
`N=C(N)NCCNC(=O)C1(Nc2ccccc2)CCN(Cc2ccccc2)CC1` has a Ki of 1470 ± 190 nM (OPRK1; binding; HEK293 membranes; added: [3H]U-69,593).
`CCC1C(=O)N(C2CCN(C(C)CC(c3ccccc3)c3ccccc3)CC2)c2ccccc21` (stereo not shown) has a Ki of over 10000 nM (OPRL1; radioligand displacement; added: [3H]N/OFQ).
`COc1cc(NC2(CNC(=O)CNC(=N)N)CCN(Cc3ccccc3)CC2)cc(OC)c1` has a Ki of 4250 ± 580 nM (OPRK1; binding; HEK293 membranes; added: [3H]U-69,593).
For `mercury(II) acetate`, the Ki was 109 nM (Botulinum neurotoxin type A, light chain (Clostridium botulinum, UniProt P0DPI0); SNAPtide cleavage, noncompetitive inhibitor).

Some of these lines once more:
With `O=CN1CC[C@]23c4c5ccc(O)c4O[C@H]2[C@@H](O)C=C[C@H]3[C@H]1C5` the Ki was 420 ± 30 nM (Mu-type opioid receptor (Oprm1, Rattus norvegicus, UniProt P33535); rat brain membranes; added: [3H]DAMGO).
